{"data": "Experimental data from different studies", "note": "Protocols differ between the studies behind these lines."}
{"Compound": "C[C@]12CC[C@H](OC(=O)NC3CCNCC3)C[C@H]1CC[C@@H]1[C@@H]2CC[C@]2(C)[C@@H](c3ccc(=O)oc3)CC[C@]12O", "test system": "male pigmented guinea pigs", "conditions": "intraperitoneal, 9 mg/kg", "endpoint": "time to death", "value": "< 1 h"}
{"Compound": "CC[C@H](C)[C@@H]1NC(=O)[C@H]([C@@H](C)O)NC(=O)[C@H](CO)NC(=O)[C@H](CCSC)NC(=O)[C@H](CCCNC(=N)N)NC(=O)[C@@H]2CCCN2C(=O)[C@H](CC(=O)O)NC(=O)CNC(=O)[C@@H]2CSSC[C@@H]3NC(=O)[C@H]([C@@H](C)O)NC(=O)[C@H](CCCCN)NC(=O)[C@@H]4CCCN4C(=O)[C@H](CSSC[C@H](NC(=O)[C@H](C(C)C)NC(=O)[C@H](CC(N)=O)NC(=O)[C@H](CCC(N)=O)NC(=O)[C@@H]4CCCN4C(=O)[C@H]([C@@H](C)CC)NC(=O)[C@H](CCCNC(=N)N)NC(=O)[C@H](CC(=O)O)NC(=O)[C@H](CCCNC(=N)N)NC(=O)[C@@H](N)CSSC[C@@H](C(N)=O)NC(=O)[C@H](CCCCN)NC(=O)CNC3=O)C(=O)N[C@@H](CCC(=O)O)C(=O)N[C@@H](CCC(N)=O)C(=O)N[C@@H](CCSC)C(=O)N[C@@H](CCCCN)C(=O)N[C@@H](CCCCN)C(=O)N[C@@H](CC(N)=O)C(=O)NCC(=O)N[C@@H](CCCCN)C(=O)N2)NC(=O)[C@H](CCC(N)=O)NC(=O)[C@H](CC(C)C)NC(=O)[C@H](CCC(=O)O)NC(=O)[C@H](C)NC1=O", "test system": "porcine simulated intestinal fluid", "endpoint": "time to complete degradation", "value": "24 h"}
{"Compound": "O=C(Cc1ccc2ccccc2c1)N[C@H](Cc1ccccc1)C(=O)N[C@H](Cc1ccc(OP(=O)(O)O)cc1)C(=O)N[C@H](Cc1ccccc1)C(=O)N[C@H](Cc1ccc(OP(=O)(O)O)cc1)C(=O)O", "test": "substrate", "test system": "SAOS-2 cell lysate", "conditions": "500 µM, pH 7.4, 37 °C", "endpoint": "time to 50% dephosphorylation", "value": "≤ 120 min"}
{"Compound": "COc1cc2ccnc(Cc3ccc(O[11CH3])c(OC)c3)c2cc1OC", "test": "PET", "test system": "rhesus macaque, brain", "conditions": "intravenous, dose not given", "endpoint": "time to peak radioactivity", "value": "~3 min"}
{"Compound": "CC[C@H](C)[C@@H]1NC(=O)[C@H](CCCNC(=N)N)NC(=O)[C@H](CC(=O)O)NC(=O)[C@H](CCSC)NC(=O)[C@H](CCCCN)NC(=O)[C@H](CCCNC(=N)N)NC(=O)CNC(=O)[C@H](Cc2ccccc2)NC(=O)[C@@H](NC(=O)CNC(=O)[C@H](CO)NC(=O)CNC(=O)[C@H](CCC(N)=O)NC(=O)[C@@H](NC(=O)[C@H](CCSC)NC(=O)[C@H](CCCCN)NC(=O)[C@@H]2CCCN2C(=O)[C@@H](N)CO)C(C)C)CSSC[C@@H](C(=O)N[C@@H](CCCCN)C(=O)N[C@H](C(=O)N[C@@H](CC(C)C)C(=O)N[C@@H](CCCN=C(N)N)C(=O)N[C@@H](CCCN=C(N)N)C(=O)N[C@@H](Cc2cnc[nH]2)C(=O)O)C(C)C)NC(=O)CNC(=O)[C@H](CC(C)C)NC(=O)CNC(=O)[C@H](CO)NC(=O)[C@H](CO)NC(=O)[C@H](CO)NC(=O)[C@H](CO)NC1=O", "test system": "human kidney membranes", "conditions": "1 µM, pH 7.5, 37 °C", "endpoint": "time to inactivation", "value": "~20 min"}
{"Compound": "CC=C(C)C(=O)OC1C2C3(C)CCC(OC4CC(OC)C(OC5OC(C)C(OC6OC(CO)C(O)C(O)C6O)C(OC)C5O)C(C)O4)CC3CCC23OC32CCC(C(C)=O)C2(C)C1OC(C)=O (stereo not shown)", "test system": "pooled human faecal microbiota", "conditions": "50 µM, 37 °C, anaerobic", "endpoint": "time to complete conversion", "value": "≤ 8 h"}
{"Compound": "C[C@H](N)C(=O)OCCOCn1cnc2c(=O)[nH]c(N)nc21", "test system": "rabbit corneal homogenate", "conditions": "0.133 mM, pH 7.4", "endpoint": "time to complete hydrolysis", "value": "< 5 min"}
{"Compound": "CC[C@H](C)[C@H](NC(=O)CNC(=O)[C@H](CSCC(N)=O)NC(=O)[C@@H](NC(=O)CNC(=O)[C@H](CCCNC(=N)N)NC(=O)[C@@H](NC(=O)[C@H](CCCNC(=N)N)NC(=O)[C@H](CCC(=O)O)NC(=O)CNC(=O)[C@H](CCCNC(=N)N)NC(=O)[C@H](CCCCN)NC(=O)[C@H](CSCC(N)=O)NC(=O)[C@H](Cc1c[nH]cn1)NC(=O)CNC(=O)[C@H](CCCCN)NC(=O)[C@H](CCCNC(=N)N)NC(=O)[C@H](CSCC(N)=O)NC(=O)[C@H](Cc1ccc(O)cc1)NC(=O)[C@@H](N)CSCC(N)=O)C(C)C)[C@@H](C)O)C(=O)N[C@@H](CCCNC(=N)N)C(=O)N[C@@H](Cc1ccccc1)C(=O)N[C@@H](CC(C)C)C(=O)N[C@@H](Cc1ccc(O)cc1)C(=O)N[C@@H](CSCC(N)=O)C(=O)N[C@@H](CSCC(N)=O)C(=O)N1CCC[C@H]1C(=O)N[C@@H](CCCNC(=N)N)C(=O)N[C@@H](CCCNC(=N)N)C(=O)NCC(=O)N[C@@H](CC(C)C)C(=O)N[C@@H](CC(C)C)C(=O)NO", "test system": "100% human serum", "conditions": "27 µM, 37 °C, heat-inactivated serum", "endpoint": "time to complete proteolysis", "value": "10 to 30 min"}
{"Compound": "CSCC[C@H](NC(=O)[C@H](CC(N)=O)NC(=O)[C@@H](N)Cc1ccccc1)C(=O)N[C@@H](CCC(N)=O)C(=O)N[C@@H](C)C(=O)N[C@@H](CCC(N)=O)C(=O)N[C@@H](CCCNC(=N)N)C(=O)N[C@@H](CCCNC(=N)N)C(=O)N[C@@H](Cc1ccccc1)C(=O)N[C@@H](Cc1ccc(O)cc1)C(=O)N[C@@H](CCC(=O)O)C(=O)N[C@@H](C)C(=O)N[C@@H](CC(C)C)C(=O)N[C@@H](Cc1c[nH]cn1)C(=O)N[C@@H](CC(=O)O)C(=O)NCC(=O)NCC(=O)NCC(=O)NCC(=O)N[C@@H](CO)C(=O)N[C@@H](C)C(=O)N[C@@H](CCC(=O)O)C(=O)N[C@@H](C)C(=O)N[C@@H](CCC(=O)O)C(=O)N[C@@H](C)C(=O)N[C@@H](CCCCN)C(=O)N[C@@H](C)C(=O)N[C@@H](CCCCN)C(=O)N[C@@H](C)C(=O)N[C@@H](CCC(=O)O)C(=O)N[C@@H](C)C(=O)N[C@@H](CCC(=O)O)C(=O)N[C@@H](C)C(=O)N[C@@H](CCCCN)C(=O)N[C@@H](C)C(=O)N[C@@H](CCCCN)C(=O)O", "test": "Congo red", "test system": "PBS", "endpoint": "time to microstructure formation", "value": "3 h"}
{"Compound": "CSCC[C@H](NC(=O)[C@H](CO)NC(=O)[C@H](CCC(N)=O)NC(=O)[C@H](CCC(=O)O)NC(=O)[C@H](CCC(=O)O)NC(=O)CNC(=O)[C@H](CSSC[C@H](NC(=O)[C@H](CCCNC(=N)N)NC(=O)[C@@H]1CCCN1C(=O)[C@H](Cc1c[nH]cn1)NC(=O)[C@H](Cc1c[nH]c2ccccc12)NC(=O)[C@H](CCCCN)NC(=O)[C@H](Cc1ccccc1)NC(=O)[C@H](CC(C)C)NC(=O)CN)C(=O)NCC(=O)N[C@@H](CCC(=O)O)C(=O)N[C@@H](CCC(=O)O)C(=O)N[C@@H](CCC(N)=O)C(=O)N[C@@H](CO)C(=O)N[C@@H](CCSC)C(=O)N[C@@H](Cc1c[nH]c2ccccc12)C(=O)N[C@H](C(=O)O)[C@@H](C)O)NC(=O)[C@H](CCCNC(=N)N)NC(=O)[C@@H]1CCCN1C(=O)[C@H](Cc1c[nH]cn1)NC(=O)[C@H](Cc1c[nH]c2ccccc12)NC(=O)[C@H](CCCCN)NC(=O)[C@H](Cc1ccccc1)NC(=O)[C@H](CC(C)C)NC(=O)CN)C(=O)N[C@@H](Cc1c[nH]c2ccccc12)C(=O)N[C@H](C(=O)O)[C@@H](C)O", "test system": "plasma", "conditions": "37 °C", "endpoint": "time to complete degradation", "value": "10 h"}
{"Compound": "CC[C@H](C)[C@@H]1NC(=O)[C@H](CC(N)=O)NC(=O)[C@@H]2CCCN2C(=O)[C@@H](NC(=O)[C@H](CC(N)=O)NC(=O)[C@@H](N)CCC(N)=O)COC(=O)[C@H](CCSC)NC(=O)[C@H](Cc2c[nH]c3ccccc23)NC(=O)[C@H](CCC(N)=O)NC(=O)CNC(=O)[C@H](Cc2ccccc2)NC1=O", "test system": "human plasma", "conditions": "37 °C", "endpoint": "time to complete degradation", "value": "1 h"}
{"Compound": "CC[C@H](C)[C@H](NC(=O)[C@H](CC(C)C)NC(=O)[C@@H]1CCCN1C(=O)[C@H](CO)NC(=O)[C@@H](N)CC(C)C)C(=O)N[C@@H](Cc1ccccc1)C(=O)N[C@H](C(=O)N[C@H](C(=O)N[C@H](C(=O)N1CCC[C@H]1C(=O)N[C@@H](CC(=O)O)C(=O)N[C@H](C(=O)O)[C@@H](C)O)[C@@H](C)O)[C@@H](C)O)C(C)C", "test": "RP-HPLC", "test system": "10% mouse serum", "conditions": "0.2 mM, 37 °C", "endpoint": "time to complete degradation", "value": "≤ 24 h"}
{"Compound": "CC[C@H](C)[C@@H]1NC(=O)[C@H](Cc2ccc(O)cc2)NC(=O)[C@@H](N)Cn2cc(nn2)CCCC[C@@H](C(=O)N2CCC[C@H]2C(=O)N[C@@H](CC(C)C)C(=O)NCC(N)=O)NC(=O)[C@H](CC(N)=O)NC(=O)[C@H](CCC(N)=O)NC1=O", "test": "RP-HPLC", "test system": "human pregnancy serum", "conditions": "37 °C", "endpoint": "time to disappearance", "value": "10 days"}
{"note": "A few entries again:"}
{"Compound": "CC[C@H](C)[C@@H]1NC(=O)[C@H](CCCNC(=N)N)NC(=O)[C@H](CC(=O)O)NC(=O)[C@H](CCSC)NC(=O)[C@H](CCCCN)NC(=O)[C@H](CCCNC(=N)N)NC(=O)CNC(=O)[C@H](Cc2ccccc2)NC(=O)[C@@H](NC(=O)CNC(=O)[C@H](CO)NC(=O)CNC(=O)[C@H](CCC(N)=O)NC(=O)[C@@H](NC(=O)[C@H](CCSC)NC(=O)[C@H](CCCCN)NC(=O)[C@@H]2CCCN2C(=O)[C@@H](N)CO)C(C)C)CSSC[C@@H](C(=O)N[C@@H](CCCCN)C(=O)N[C@H](C(=O)N[C@@H](CC(C)C)C(=O)N[C@@H](CCCN=C(N)N)C(=O)N[C@@H](CCCN=C(N)N)C(=O)N[C@@H](Cc2cnc[nH]2)C(=O)O)C(C)C)NC(=O)CNC(=O)[C@H](CC(C)C)NC(=O)CNC(=O)[C@H](CO)NC(=O)[C@H](CO)NC(=O)[C@H](CO)NC(=O)[C@H](CO)NC1=O", "test system": "human kidney membranes", "conditions": "1 µM, pH 7.5, 37 °C", "endpoint": "time to inactivation", "value": "~20 min"}
{"Compound": "CC[C@H](C)[C@@H]1NC(=O)[C@H]([C@@H](C)O)NC(=O)[C@H](CO)NC(=O)[C@H](CCSC)NC(=O)[C@H](CCCNC(=N)N)NC(=O)[C@@H]2CCCN2C(=O)[C@H](CC(=O)O)NC(=O)CNC(=O)[C@@H]2CSSC[C@@H]3NC(=O)[C@H]([C@@H](C)O)NC(=O)[C@H](CCCCN)NC(=O)[C@@H]4CCCN4C(=O)[C@H](CSSC[C@H](NC(=O)[C@H](C(C)C)NC(=O)[C@H](CC(N)=O)NC(=O)[C@H](CCC(N)=O)NC(=O)[C@@H]4CCCN4C(=O)[C@H]([C@@H](C)CC)NC(=O)[C@H](CCCNC(=N)N)NC(=O)[C@H](CC(=O)O)NC(=O)[C@H](CCCNC(=N)N)NC(=O)[C@@H](N)CSSC[C@@H](C(N)=O)NC(=O)[C@H](CCCCN)NC(=O)CNC3=O)C(=O)N[C@@H](CCC(=O)O)C(=O)N[C@@H](CCC(N)=O)C(=O)N[C@@H](CCSC)C(=O)N[C@@H](CCCCN)C(=O)N[C@@H](CCCCN)C(=O)N[C@@H](CC(N)=O)C(=O)NCC(=O)N[C@@H](CCCCN)C(=O)N2)NC(=O)[C@H](CCC(N)=O)NC(=O)[C@H](CC(C)C)NC(=O)[C@H](CCC(=O)O)NC(=O)[C@H](C)NC1=O", "test system": "porcine simulated intestinal fluid", "endpoint": "time to complete degradation", "value": "24 h"}
